Published values of several laboratories.
Every numbered part comes from another study and shows a few of its results, in no order.

Study 1
Target: Max dimerization protein 1, bHLH-zipper, MAX partner unstated (MXD1, Homo sapiens, UniProt Q05195, residues 56-136)
Technique: protein-binding microarray
Molecule type: double-stranded DNA, one strand shown
Sample: in vitro
Concentration: not given
Setting: k-mer, scored over probes, only values ≥0.25
Reading: higher = stronger binding
Residues (chain): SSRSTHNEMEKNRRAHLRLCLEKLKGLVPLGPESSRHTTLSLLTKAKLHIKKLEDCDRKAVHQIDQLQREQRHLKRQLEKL
The E-score of `AAGAAGGG` is reported as 0.263.
With `CCACGTCC` the E-score was 0.265.
`CATGTCCA` gave an E-score of 0.376.
The E-score of `GCATGAGC` is reported as 0.298.
`CCAACACG` gave an E-score of 0.301.
With `CAACGTGC` the E-score was 0.453.
The E-score of `ACGTGACG` is reported as 0.321.

Study 2
Target: Replicase polyprotein 1ab, main protease (rep, Severe acute respiratory syndrome coronavirus 2, UniProt P0DTD1)
Read-out: enzyme activity
Mode: inhibitor
Concentration: 20 µM
Setting: hit confirmation
Cc1cc(-c2ccc(/C=C3/SC(Nc4ccc(Cl)c(C(=O)O)c4)=NC3=O)o2)c([N+](=O)[O-])cc1C gave an inhibition of 86.3%.
The inhibition of COc1ccc2[nH]c(S)nc2c1 is reported as 81.4%.
The inhibition of CCCc1cc(C(=N)S)ccn1 is reported as 11.1%.

Study 3
Target: Replicase polyprotein 1ab, nsp13 helicase (rep, Severe acute respiratory syndrome coronavirus 2, UniProt P0DTD1)
Mode: inhibitor
Concentration: 20 µM
For O=C(Nc1ccccc1)N[C@@H]1C[C@@H](C(=O)O)Nc2cc(Cl)cc(Cl)c21, the inhibition was 3.98%.
COc1cccc(C(=O)CCN[C@@H](C)[C@H](O)c2ccccc2)c1 gave an inhibition of 7.86%.
For CCCCN(CCCC)CCCOC(=O)c1ccc(N)cc1, the inhibition was 2.78%.
NS(=O)(=O)Cc1noc2ccccc12 has an inhibition of 0.73%.
The inhibition of CN1c2ccccc2C(NCCCCCCC(=O)O)c2ccc(Cl)cc2S1(=O)=O (stereo not drawn) is reported as 3.41%.
The inhibition of CCn1cc(-c2ccnc3[nH]c(-c4cccc(CN(C)C)c4)cc23)c(-c2ccc(NC(=O)N(C)C)cc2)n1 is reported as 7.57%.
CC(C)C(=O)SCCCCC[C@H](NC(=O)OC(C)(C)C)C(=O)NC12CC3CC(CC(C3)C1)C2 has an inhibition of 2.82%.
The inhibition of CN(C)CCCCSC(=N)N is reported as 7.08%.
C[C@H](NC(=O)Cc1cc(F)cc(F)c1)C(=O)N[C@@H]1C(=O)N(C)c2ccccc2-c2ccccc21 has an inhibition of -0.6%.
O=C1NC(=O)/C(=C/c2ccc(-c3ccc(F)cc3O)o2)S1 has an inhibition of 28.2%.
COC(=O)[C@@H](N)CCCNC(=N)N[N+](=O)[O-] has an inhibition of 3.34%.
With CCCCOCCOc1nc(-c2ccc(C(=O)O)c(F)c2)sc1C the inhibition was 4.04%.
Cn1cnnc1Sc1c([N+](=O)[O-])ncn1C has an inhibition of 12.2%.
The inhibition of COc1ccc(OC)c(CN(C(C)=O)c2cc(F)ccc2Oc2ccccc2)c1 is reported as 4.3%.
With c1ccc(CNCc2ccc(CN3CCCNCCNCCCNCC3)cc2)nc1 the inhibition was 2.05%.
The inhibition of CCCCC#Cc1nc(NC)c2ncn([C@@H]3O[C@H](CO)[C@@H](O)[C@H]3O)c2n1 is reported as -1.91%.
For C/C=C1/[C@H](O[C@@H]2O[C@H](CO)[C@@H](O)[C@H](O)[C@H]2O)OC=C(C(=O)OC)[C@H]1CC(=O)OCCc1ccc(O)c(O)c1, the inhibition was 5.64%.
C#Cc1cccc(Nc2ncnc3cc(OCCOC)c(OCCO)cc23)c1 gave an inhibition of 2.1%.
Cn1cc(-c2ccc3nnc(C(F)(F)c4ccc5ncccc5c4)n3n2)cn1 has an inhibition of 1.06%.
The inhibition of NCCC[C@H](N)C(=O)O is reported as 4.52%.
The inhibition of Cc1ccc(Cl)c(Nc2ccccc2C(=O)O)c1Cl is reported as 8.57%.
c1ccc2c(c1)Nc1ccccc1S2 has an inhibition of -2.49%.
The inhibition of CCNC1(C(N)=O)CCN(c2ncnc3c2nc(-c2ccccc2Cl)n3-c2ccc(Cl)cc2)CC1 is reported as 2.68%.
c1ccc2cc(C3=NCCN3)ncc2c1 has an inhibition of 5.72%.
For O=C(NC1CC1)c1cc(-c2cccs2)on1, the inhibition was 4.91%.

Study 4
Target: Sal-like protein 4, full length isoform A (SALL4, Homo sapiens, UniProt Q9UJQ4, residues 1-1053)
Sequence of UniProt Q9UJQ4 (whole entry, looked up): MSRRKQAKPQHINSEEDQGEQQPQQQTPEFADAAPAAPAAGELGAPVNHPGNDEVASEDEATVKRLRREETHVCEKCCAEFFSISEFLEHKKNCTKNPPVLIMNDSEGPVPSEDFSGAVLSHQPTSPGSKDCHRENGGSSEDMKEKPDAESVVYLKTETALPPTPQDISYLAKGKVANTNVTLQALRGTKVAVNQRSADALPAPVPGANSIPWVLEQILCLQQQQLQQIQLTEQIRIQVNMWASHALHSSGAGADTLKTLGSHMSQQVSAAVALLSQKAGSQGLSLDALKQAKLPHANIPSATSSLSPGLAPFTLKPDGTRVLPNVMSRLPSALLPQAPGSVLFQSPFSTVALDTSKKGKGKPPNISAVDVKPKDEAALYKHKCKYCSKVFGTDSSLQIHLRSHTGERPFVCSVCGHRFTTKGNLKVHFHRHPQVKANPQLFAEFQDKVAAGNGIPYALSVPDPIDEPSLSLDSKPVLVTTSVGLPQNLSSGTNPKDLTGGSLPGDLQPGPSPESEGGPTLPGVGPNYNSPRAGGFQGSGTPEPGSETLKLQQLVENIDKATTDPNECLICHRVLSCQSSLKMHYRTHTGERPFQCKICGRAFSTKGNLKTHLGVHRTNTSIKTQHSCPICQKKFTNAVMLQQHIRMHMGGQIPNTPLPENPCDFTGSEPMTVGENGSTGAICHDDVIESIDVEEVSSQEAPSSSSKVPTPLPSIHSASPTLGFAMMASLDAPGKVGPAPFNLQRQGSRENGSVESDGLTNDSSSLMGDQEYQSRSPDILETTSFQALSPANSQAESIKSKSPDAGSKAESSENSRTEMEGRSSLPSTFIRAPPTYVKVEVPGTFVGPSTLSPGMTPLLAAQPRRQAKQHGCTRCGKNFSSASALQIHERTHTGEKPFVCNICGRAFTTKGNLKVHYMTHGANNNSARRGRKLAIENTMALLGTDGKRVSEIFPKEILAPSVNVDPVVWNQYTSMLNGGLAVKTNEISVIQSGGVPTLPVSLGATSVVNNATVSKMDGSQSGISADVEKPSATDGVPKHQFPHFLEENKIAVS
Technique: universal PBM
Molecule type: double-stranded DNA, one strand shown
Sample: in vitro
Concentration: 600 nM
Setting: 8-mer, flanks averaged, mean of replicates
Reading: higher = stronger binding
`GAGGTCAC` has an E-score of -0.305.
For `ATTTAAAC`, the E-score was 0.254.
`ACTCTAGA` gave an E-score of 0.0599.
For `CGACGAAA`, the E-score was 0.0763.
For `ATTGACTC`, the E-score was 0.089.
With `AGTCCCTG` the E-score was -0.276.
For `ACGAGTTG`, the E-score was 0.0169.
For `CTTCGGAC`, the E-score was -0.0715.

Study 5
Target: PABPC1L2, full length, GST fusion (mouse, UniProt A0ABA7IW68)
Technique: RNAcompete
Molecule type: RNA
Sample: in vitro
Concentration: 20 nM
Setting: 7-mer, probes averaged, single round
Reference: mean of 7-mers
Reading: higher = stronger binding
Residues (chain): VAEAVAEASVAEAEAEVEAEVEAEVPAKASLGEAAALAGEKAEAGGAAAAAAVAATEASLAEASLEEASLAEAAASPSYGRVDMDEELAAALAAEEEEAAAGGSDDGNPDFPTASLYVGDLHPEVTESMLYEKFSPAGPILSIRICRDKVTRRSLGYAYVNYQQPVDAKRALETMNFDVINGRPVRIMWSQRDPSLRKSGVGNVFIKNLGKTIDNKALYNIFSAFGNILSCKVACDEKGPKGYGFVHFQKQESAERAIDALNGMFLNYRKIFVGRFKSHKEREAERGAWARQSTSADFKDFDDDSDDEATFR
For `ACGGCCC`, the 7-mer Z-score was -0.05.
With `UCUUGCU` the 7-mer Z-score was -0.545.
The 7-mer Z-score of `CAAUUUG` is reported as -0.224.
For `AAGGAUA`, the 7-mer Z-score was 0.115.
With `UACACGA` the 7-mer Z-score was 0.0279.
`AUAAAGC` gave a 7-mer Z-score of 1.74.
For `UAUGCAU`, the 7-mer Z-score was -0.197.
With `UCUGAAG` the 7-mer Z-score was -0.142.

Study 6
Cell line: HEK-293T/ACE2
Concentration: 10 µM
Time: 16 h
Reference: vehicle
For OC[C@H]1O[C@@H](O[C@@H]2[C@@H](CO)OC(O)(CO)[C@H]2O)[C@H](O)[C@@H](O)[C@H]1O (mixture of isomers), the viability was 99%.
O=C(OOC(=O)c1ccccc1)c1ccccc1 has a viability of 100%.
For Cc1cnc(NC(=O)C2=C(O)c3ccccc3S(=O)(=O)N2C)s1, the viability was 100%.

Repeated from above (study 3):
The inhibition of Cc1ccc(Cl)c(Nc2ccccc2C(=O)O)c1Cl is reported as 8.57%.
c1ccc2cc(C3=NCCN3)ncc2c1 has an inhibition of 5.72%.
C[C@H](NC(=O)Cc1cc(F)cc(F)c1)C(=O)N[C@@H]1C(=O)N(C)c2ccccc2-c2ccccc21 has an inhibition of -0.6%.
